Assay results gathered from unrelated publications.
“And” joins repeats or separate records; there may be more than shown. ± marks the error that the study gave.

SMILES	test	system	setting	quantity	value
Cc1nc2ccc(OCc3ccc(C(F)(F)F)cc3)cc2[nH]1	–	Balb/c mouse, male, lungs	oral, 10 mg/kg, 72 h	tissue concentration	3.9 ± 0.6 ng/g
CCc1c2c(nc3ccc(OC(=O)N4CCC(N5CCCCC5)CC4)cc13)-c1cc3c(c(=O)n1C2)COC(=O)[C@]3(O)CC	–	mouse, colon	intraperitoneal, 50 mg/kg, 24 h	tissue concentration	15200 ± 7130 ng/g
OCc1nc2ccc(NCc3ccc(C(F)(F)F)cc3)cc2[nH]1	–	Balb/c mouse, male, liver	intravenous, 1 mg/kg, 6 h	tissue concentration	71.8 ± 21.1 ng/g
COc1cccc(OC)c1-c1cc(C(=O)NC2(C(=O)O)C3CC4CC(C3)CC2C4)nn1-c1ccc(C(=O)N(C)CCCN(C)CCCN(C)C(=O)CN2CCN(CC(=O)[O-])CCN(CC(=O)[O-])CCN(CC(=O)[O-])CC2)cc1C(C)C.[177Lu+3] (stereo not drawn)	–	SCID mouse HT-29 xenograft, large intestine	iv, 4 h	tissue uptake	3.7 ± 1.2 %ID/g
CSc1cc(C)nc(SC)c1NC(=O)CN1CCN(CCSc2nc3ccccc3[nH]2)CC1.Cl	–	mouse Crl:CD1 (ICR), female, cerebrum	intranasal, 10 µL of CA solution once daily for 7 days, 120 min after last dose	tissue concentration	0.6 ng/g and 0.9 ng/g
O=c1cc(-c2ccc(O)cc2)oc2c([C@@H]3OC[C@H](O)[C@H](O)[C@H]3O)c(O)c([C@@H]3O[C@H](CO)[C@@H](O)[C@H](O)[C@H]3O)c(O)c12	UHPLC-MS/MS	C57BL/6J mouse, kidneys	oral, dose not given	tissue concentration	0.31 ng/g
CC(C)NCCCC[C@@H]1NC(=O)[C@H](Cc2ccc(O)cc2)NC(=O)[C@H](Cc2ccccc2)NC(=O)CC[C@H](C(=O)N[C@@H](CCCCNC(C)C)C(=O)N[C@@H](CCCCNC(=O)[C@H](CCC(=O)O)NC(=O)[C@H](CCC(=O)O)NC(=O)[C@H](CCC(=O)O)NC(=O)CN2CCN(CC(=O)O)CCN(CC(=O)O)CCN(CC(=O)O)CC2)C(N)=O)NC(=O)CNC(=O)[C@H](Cc2ccc3ccccc3c2)NC(=O)[C@@H](CCCNC(=N)N)NC1=O [gallium-68 labelled]	–	mouse with Daudi xenograft, lung	intravenous, 2 h	tissue uptake	0.27 %ID/g
COc1cccc(OC)c1-c1cc(C(=O)NC2(C(=O)O)C3CC4CC(C3)CC2C4)nn1-c1ccc(C(=O)N(C)CCCN(C)CCCN(C)C(=O)CN2CCN(CC(=O)[O-])CCN(CC(=O)[O-])CCN(CC(=O)[O-])CC2)cc1C(C)C.[177Lu+3] (stereo not drawn)	–	mouse, HT-29 xenograft, kidney	4 h post injection	tissue uptake	3.8 %ID/g
COCCCOc1cc2c(cc1OC)-c1cc(=O)c(C(=O)O)cn1[C@H](C(C)C)C2	–	CD-1 mouse, liver	oral, 10 mg/kg	tissue concentration	> 10000 ng/g

For quick reference, copied from above:
SMILES	test	system	setting	quantity	value
COc1cccc(OC)c1-c1cc(C(=O)NC2(C(=O)O)C3CC4CC(C3)CC2C4)nn1-c1ccc(C(=O)N(C)CCCN(C)CCCN(C)C(=O)CN2CCN(CC(=O)[O-])CCN(CC(=O)[O-])CCN(CC(=O)[O-])CC2)cc1C(C)C.[177Lu+3] (stereo not drawn)	–	mouse, HT-29 xenograft, kidney	4 h post injection	tissue uptake	3.8 %ID/g
